Published values gathered from unrelated publications.
Every numbered part comes from another study and shows a few of its results, in no order. Values joined by “and” are separate records of one study, mostly repeats; a detail may differ.
Sequence of UniProt Q6DT37 (whole entry, looked up): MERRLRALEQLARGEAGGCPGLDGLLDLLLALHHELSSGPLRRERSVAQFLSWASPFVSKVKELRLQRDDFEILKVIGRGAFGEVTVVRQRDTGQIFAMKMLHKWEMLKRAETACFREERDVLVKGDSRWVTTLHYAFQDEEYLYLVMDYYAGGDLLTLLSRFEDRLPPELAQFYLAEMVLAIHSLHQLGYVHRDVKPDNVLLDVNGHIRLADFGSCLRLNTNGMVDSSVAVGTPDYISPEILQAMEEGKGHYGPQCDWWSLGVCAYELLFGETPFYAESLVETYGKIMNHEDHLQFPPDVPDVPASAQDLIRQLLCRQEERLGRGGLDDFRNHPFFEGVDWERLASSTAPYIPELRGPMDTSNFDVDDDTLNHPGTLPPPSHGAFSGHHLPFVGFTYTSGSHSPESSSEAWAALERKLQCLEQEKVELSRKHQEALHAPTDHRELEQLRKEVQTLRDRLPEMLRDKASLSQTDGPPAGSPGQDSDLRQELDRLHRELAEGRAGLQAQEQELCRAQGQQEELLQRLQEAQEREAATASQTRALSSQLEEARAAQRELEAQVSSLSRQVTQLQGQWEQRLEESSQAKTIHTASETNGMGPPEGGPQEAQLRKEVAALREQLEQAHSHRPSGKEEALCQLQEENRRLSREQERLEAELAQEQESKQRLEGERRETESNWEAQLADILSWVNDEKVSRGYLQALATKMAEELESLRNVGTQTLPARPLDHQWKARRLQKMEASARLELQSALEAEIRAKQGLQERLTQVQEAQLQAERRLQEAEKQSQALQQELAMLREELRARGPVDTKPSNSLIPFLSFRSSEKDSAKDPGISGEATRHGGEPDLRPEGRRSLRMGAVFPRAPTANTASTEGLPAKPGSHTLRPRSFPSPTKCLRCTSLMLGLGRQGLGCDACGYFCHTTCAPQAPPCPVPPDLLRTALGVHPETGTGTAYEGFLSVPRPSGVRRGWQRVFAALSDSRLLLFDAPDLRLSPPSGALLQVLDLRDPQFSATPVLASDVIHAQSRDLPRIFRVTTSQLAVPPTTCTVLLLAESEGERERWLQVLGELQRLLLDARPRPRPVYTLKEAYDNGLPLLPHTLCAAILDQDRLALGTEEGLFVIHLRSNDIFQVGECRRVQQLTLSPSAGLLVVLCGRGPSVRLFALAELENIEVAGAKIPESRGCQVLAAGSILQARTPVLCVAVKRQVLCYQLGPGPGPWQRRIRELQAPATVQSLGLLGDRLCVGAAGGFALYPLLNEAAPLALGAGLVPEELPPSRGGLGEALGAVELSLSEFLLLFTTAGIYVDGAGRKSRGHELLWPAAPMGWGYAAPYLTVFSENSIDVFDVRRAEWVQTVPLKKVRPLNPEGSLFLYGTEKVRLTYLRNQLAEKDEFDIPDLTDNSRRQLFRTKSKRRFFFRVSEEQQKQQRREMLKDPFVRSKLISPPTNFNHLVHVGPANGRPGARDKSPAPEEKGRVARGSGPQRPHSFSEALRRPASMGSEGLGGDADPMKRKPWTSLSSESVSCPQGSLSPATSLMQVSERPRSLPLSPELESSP
Sequence of UniProt Q96NX5 (whole entry, looked up): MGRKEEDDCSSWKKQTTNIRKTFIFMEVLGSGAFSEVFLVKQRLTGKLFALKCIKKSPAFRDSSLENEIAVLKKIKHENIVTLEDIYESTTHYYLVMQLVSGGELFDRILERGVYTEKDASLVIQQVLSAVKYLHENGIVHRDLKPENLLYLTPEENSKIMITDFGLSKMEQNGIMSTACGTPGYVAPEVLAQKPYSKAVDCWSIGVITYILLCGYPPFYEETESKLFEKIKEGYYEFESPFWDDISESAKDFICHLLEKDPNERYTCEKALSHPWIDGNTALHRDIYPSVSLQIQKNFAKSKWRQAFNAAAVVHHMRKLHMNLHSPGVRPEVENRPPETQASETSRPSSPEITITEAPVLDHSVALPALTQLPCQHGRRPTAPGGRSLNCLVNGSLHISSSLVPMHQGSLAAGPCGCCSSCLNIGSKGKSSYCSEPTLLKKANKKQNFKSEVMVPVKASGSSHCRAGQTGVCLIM
Sequence of UniProt Q8TDC3 (whole entry, looked up): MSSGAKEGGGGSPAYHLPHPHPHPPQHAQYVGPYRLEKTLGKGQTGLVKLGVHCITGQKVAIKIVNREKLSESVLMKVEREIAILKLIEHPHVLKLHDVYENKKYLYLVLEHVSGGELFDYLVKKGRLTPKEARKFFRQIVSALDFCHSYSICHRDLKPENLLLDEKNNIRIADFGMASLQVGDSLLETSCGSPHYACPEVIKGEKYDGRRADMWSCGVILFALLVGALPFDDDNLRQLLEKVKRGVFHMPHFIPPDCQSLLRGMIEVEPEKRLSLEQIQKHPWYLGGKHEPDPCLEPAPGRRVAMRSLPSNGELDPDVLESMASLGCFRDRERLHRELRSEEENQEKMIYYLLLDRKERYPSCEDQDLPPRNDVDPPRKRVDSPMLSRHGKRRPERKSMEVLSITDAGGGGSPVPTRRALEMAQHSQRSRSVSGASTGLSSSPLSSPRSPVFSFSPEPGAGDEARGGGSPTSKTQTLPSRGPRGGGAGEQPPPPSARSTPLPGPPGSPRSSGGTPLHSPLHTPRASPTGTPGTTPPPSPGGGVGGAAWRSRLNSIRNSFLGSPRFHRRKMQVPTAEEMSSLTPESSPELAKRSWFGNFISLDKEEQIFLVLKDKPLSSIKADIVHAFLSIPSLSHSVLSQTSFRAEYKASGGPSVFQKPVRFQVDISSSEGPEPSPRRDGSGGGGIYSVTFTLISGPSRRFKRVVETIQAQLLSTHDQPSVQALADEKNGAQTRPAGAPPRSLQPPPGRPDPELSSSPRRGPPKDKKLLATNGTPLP
Sequence of UniProt P78362 (whole entry, looked up): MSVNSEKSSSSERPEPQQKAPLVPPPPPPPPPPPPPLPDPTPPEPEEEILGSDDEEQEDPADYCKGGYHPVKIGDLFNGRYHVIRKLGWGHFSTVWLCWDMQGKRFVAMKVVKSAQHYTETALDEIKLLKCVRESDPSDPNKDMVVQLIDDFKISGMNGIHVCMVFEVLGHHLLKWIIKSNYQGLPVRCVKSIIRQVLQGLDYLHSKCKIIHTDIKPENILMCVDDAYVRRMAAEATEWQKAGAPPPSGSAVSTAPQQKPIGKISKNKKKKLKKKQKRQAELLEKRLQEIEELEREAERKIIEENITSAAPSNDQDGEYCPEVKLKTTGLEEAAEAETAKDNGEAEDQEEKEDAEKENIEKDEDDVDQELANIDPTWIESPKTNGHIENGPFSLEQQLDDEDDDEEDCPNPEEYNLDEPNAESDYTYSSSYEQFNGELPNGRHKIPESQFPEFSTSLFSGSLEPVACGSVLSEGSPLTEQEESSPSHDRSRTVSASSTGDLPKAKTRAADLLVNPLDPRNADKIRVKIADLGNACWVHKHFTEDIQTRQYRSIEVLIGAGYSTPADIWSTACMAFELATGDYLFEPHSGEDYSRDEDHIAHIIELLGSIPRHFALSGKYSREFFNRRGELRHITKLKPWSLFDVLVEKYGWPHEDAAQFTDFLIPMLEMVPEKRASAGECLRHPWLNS
Sequence of UniProt Q13131 (whole entry, looked up): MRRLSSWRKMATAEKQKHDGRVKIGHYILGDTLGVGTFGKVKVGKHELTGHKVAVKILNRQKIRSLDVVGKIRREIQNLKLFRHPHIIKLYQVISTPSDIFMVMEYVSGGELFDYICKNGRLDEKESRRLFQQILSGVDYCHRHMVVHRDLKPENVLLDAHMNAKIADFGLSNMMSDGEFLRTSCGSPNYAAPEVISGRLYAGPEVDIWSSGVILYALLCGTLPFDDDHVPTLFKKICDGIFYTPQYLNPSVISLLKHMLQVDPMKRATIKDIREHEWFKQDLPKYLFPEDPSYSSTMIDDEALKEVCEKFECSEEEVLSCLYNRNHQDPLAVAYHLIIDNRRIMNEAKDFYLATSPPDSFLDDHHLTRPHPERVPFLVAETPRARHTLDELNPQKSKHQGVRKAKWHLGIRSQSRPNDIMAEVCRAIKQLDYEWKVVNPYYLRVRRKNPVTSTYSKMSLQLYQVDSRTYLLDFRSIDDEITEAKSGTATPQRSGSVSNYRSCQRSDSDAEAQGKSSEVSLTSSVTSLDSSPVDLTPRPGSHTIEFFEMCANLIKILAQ

Block 1 — concentration: 1 µM
Structure (SMILES): Cc1c(C(=O)O)cc(-c2ccc(C3CCNCC3)cc2)c2ccc(-c3ccc(C(F)(F)F)cc3)cc12
target	effect on	technique	remaining binding [%]
Tyrosine-protein kinase ABL1, non-phosphorylated (ABL1, Homo sapiens, UniProt P00519, H396P)	binding	competition with immobilised ligand	72
MAP3K10 (Homo sapiens, UniProt Q02779)	binding	competition with immobilised ligand	100
PRKAA1 (Homo sapiens, UniProt Q13131)	cell-free assay	competition with immobilised ligand	98
ALK (Homo sapiens, UniProt Q9UM73, L1196M)	cell-free assay	competition with immobilised ligand	100
CAMK1G (Homo sapiens, UniProt Q96NX5)	cell-free assay	competition with immobilised ligand	100
ULK3 (Homo sapiens, UniProt Q6PHR2)	binding	competition with immobilised ligand	95
CDC42BPG (Homo sapiens, UniProt Q6DT37)	–	competition binding	100
BRSK1 (Homo sapiens, UniProt Q8TDC3)	binding	competition with immobilised ligand	100
MYLK (Homo sapiens, UniProt Q15746)	binding	competition with immobilised ligand	82
Ribosomal protein S6 kinase alpha-2, N-terminal kinase domain (RPS6KA2, Homo sapiens, UniProt Q15349)	binding	competition with immobilised ligand	100
DSTYK (Homo sapiens, UniProt Q6XUX3)	binding	competition with immobilised ligand	100
KIT (Homo sapiens, UniProt P10721, D816V)	binding	competition with immobilised ligand	100
STK16 (Homo sapiens, UniProt O75716)	binding	competition with immobilised ligand	100
SRPK2 (Homo sapiens, UniProt P78362)	binding	competition with immobilised ligand	82

Block 2 — effect on: enzyme activity; action: inhibitor; concentration: 0.5 µM; reference: control
Target: Serine/threonine-protein kinase B-raf (BRAF, Homo sapiens, UniProt P15056)
Sequence of UniProt P15056 (whole entry, looked up): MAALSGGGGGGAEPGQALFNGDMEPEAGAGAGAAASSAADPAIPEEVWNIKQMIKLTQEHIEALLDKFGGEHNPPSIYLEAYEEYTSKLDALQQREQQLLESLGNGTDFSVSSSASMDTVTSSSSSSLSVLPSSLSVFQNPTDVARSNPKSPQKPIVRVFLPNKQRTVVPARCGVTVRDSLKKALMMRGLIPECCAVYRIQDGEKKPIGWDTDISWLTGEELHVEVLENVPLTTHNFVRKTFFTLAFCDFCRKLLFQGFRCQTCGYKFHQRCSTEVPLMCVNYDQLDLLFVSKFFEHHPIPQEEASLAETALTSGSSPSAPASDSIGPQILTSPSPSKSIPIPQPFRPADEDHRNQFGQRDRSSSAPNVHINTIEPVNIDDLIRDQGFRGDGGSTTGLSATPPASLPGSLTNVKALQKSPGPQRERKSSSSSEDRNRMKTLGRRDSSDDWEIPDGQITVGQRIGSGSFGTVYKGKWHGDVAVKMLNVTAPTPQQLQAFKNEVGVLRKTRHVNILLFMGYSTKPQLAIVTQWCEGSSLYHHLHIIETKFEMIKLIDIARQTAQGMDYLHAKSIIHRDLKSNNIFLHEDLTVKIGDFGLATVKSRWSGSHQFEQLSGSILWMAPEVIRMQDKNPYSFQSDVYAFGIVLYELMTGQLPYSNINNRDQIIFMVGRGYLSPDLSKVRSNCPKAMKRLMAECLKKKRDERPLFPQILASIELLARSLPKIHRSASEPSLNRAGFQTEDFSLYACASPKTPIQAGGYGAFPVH
SMILES	remaining activity
O=C1NC(=O)/C(=C/c2ccc3nccnc3c2)S1	95.1%
O=C(Nc1ccc(Cl)cc1)c1ccccc1NCc1ccncc1	90%
Nc1[nH]nc2nnc(-c3c(-c4ccccc4)nn4ccccc34)cc12	95.7%
Cn1cnc2cc3c(Nc4cccc(Br)c4)ncnc3cc21	94.2%
CCOc1cc2ncnc(Nc3cccc(Br)c3)c2cc1OCC	97.1%
COc1cc2ncc(-c3ccccc3)nc2cc1OC	93.2%
COc1ccc(Cl)cc1NC(=O)Nc1cc(C)nc2ccccc12	98.9%
COc1ccc(-c2cnc3c(-c4ccsc4)cnn3c2)cc1	85.9%
CCC(=O)Nc1ccc2ncnc(Nc3cccc(Br)c3)c2c1	93%
COc1cc2ncnc(N3CCN(C(=O)Nc4ccc(Oc5ccccc5)cc4)CC3)c2cc1OC	92.6%
CC(C)[C@H](CO)Nc1nc(Nc2cccc(Cl)c2)c2ncn(C(C)C)c2n1	92.7%
CCN1/C(=C/C(C)=O)Sc2ccc(OC)cc21	95.3%
CN(C)CCCn1cc(C2=C(c3c[nH]c4ccccc34)C(=O)NC2=O)c2ccccc21	103%
CC(=O)O/N=C1/C(c2c(O)[nH]c3cc(Br)ccc23)=Nc2ccccc21	97.9%

Block 3 — cell line: mouse MPNST tumor cells; technique: high-content nuclear imaging; refers to: cell number; concentration: 10 µM; time: 12 h; setting: mean of 2 replicates; reference: plate mean; reading: higher = more cells
Structure (SMILES)	nuclei count
OCCN1CCN(CCCN2c3ccccc3Sc3ccc(Cl)cc32)CC1	-7.35 z-score
COc1ccc2nc3n[nH]c(C)c3c(NCCOCCO)c2c1	1.13 z-score
CCN(CC)C(=O)C1(c2ccccc2)CC1CN (centres unmarked)	2.26 z-score
O=c1cc(N2CCOCC2)oc2c(-c3ccccc3)cccc12	0.666 z-score
O=C1c2cc3c(cc2OC2CCCN12)OCCO3 (centres unmarked)	-0.0517 z-score
CN(C)CC(=O)Nc1ccc2[nH]c(=O)c3ccccc3c2c1	1.92 z-score
CC1(C)S[C@@H]2[C@H](NC(=O)[C@H](C(=O)O)c3ccsc3)C(=O)N2[C@H]1C(=O)O	1.1 z-score
C[C@@H]1C[C@H]2[C@@H]3CCC4=CC(=O)C=C[C@]4(C)[C@@]3(Cl)[C@@H](O)C[C@]2(C)[C@@]1(OC(=O)c1ccco1)C(=O)CCl	1.53 z-score
CC(=O)Nc1ccc(NC(=S)NC(=O)c2ccc(C(C)(C)C)cc2)cc1	0.725 z-score
Nc1nc(N)nc(-c2cc(Cl)ccc2Cl)n1	0.939 z-score and 0.525 z-score

Block 4 — cell line: A-375; concentration: 100 µM; time: 36 h
SMILES	viability
O=C1CC[C@@H](C(=O)N2CSC[C@H]2C(=O)O)N1	89.1%
CO[C@H]1/C=C/O[C@@]2(C)Oc3c(C)c(O)c4c(O)c(c5c(nc6cc(C)ccn65)c4c3C2=O)NC(=O)/C(C)=C\C=C\[C@H](C)[C@H](O)[C@@H](C)[C@@H](O)[C@@H](C)[C@H](OC(C)=O)[C@@H]1C	11%
COc1ccccc1OCC(O)CN1CCN(CC(=O)Nc2c(C)cccc2C)CC1 (centres unmarked)	104%
CCCCCCCCc1ccc(CCC(N)(CO)CO)cc1	1.63%
CCCCc1nc(Cl)c(CO)n1Cc1ccc(-c2ccccc2-c2nn[nH]n2)cc1	107% and 126%
N[C@@H](C(=O)N[C@@H]1C(=O)N2C(C(=O)O)=C(Cl)CS[C@H]12)c1ccccc1	96%
Cc1cn([C@@H]2C[C@@H](O)[C@H](CO)O2)c(=O)[nH]c1=O	110%
C[C@]12C=CC(=O)C=C1CC[C@@H]1[C@@H]2[C@@H](O)C[C@@]2(C)[C@H]1CC[C@]2(O)C(=O)CO	109%
Cc1ccc(C(=O)C(C)CN2CCCCC2)cc1 (centres unmarked)	116%
CC1=C(/C=C/C(C)=C/C=C/C(C)=C/C=C/C=C(C)/C=C/C=C(C)/C=C/C2=C(C)CCCC2(C)C)C(C)(C)CCC1	41.6%
CC(C)C[C@H](NC(=O)CNC(=O)c1cc(Cl)ccc1Cl)B(O)O	8.53%
CN(C)[C@@H](CCOc1cccc2ccccc12)c1ccccc1	-2.6%
